Experimental data gathered from unrelated publications.
Numbered parts are unrelated; each lists some results of a single study.
Sequence of UniProt Q5S007 (whole entry, unmodified, looked up): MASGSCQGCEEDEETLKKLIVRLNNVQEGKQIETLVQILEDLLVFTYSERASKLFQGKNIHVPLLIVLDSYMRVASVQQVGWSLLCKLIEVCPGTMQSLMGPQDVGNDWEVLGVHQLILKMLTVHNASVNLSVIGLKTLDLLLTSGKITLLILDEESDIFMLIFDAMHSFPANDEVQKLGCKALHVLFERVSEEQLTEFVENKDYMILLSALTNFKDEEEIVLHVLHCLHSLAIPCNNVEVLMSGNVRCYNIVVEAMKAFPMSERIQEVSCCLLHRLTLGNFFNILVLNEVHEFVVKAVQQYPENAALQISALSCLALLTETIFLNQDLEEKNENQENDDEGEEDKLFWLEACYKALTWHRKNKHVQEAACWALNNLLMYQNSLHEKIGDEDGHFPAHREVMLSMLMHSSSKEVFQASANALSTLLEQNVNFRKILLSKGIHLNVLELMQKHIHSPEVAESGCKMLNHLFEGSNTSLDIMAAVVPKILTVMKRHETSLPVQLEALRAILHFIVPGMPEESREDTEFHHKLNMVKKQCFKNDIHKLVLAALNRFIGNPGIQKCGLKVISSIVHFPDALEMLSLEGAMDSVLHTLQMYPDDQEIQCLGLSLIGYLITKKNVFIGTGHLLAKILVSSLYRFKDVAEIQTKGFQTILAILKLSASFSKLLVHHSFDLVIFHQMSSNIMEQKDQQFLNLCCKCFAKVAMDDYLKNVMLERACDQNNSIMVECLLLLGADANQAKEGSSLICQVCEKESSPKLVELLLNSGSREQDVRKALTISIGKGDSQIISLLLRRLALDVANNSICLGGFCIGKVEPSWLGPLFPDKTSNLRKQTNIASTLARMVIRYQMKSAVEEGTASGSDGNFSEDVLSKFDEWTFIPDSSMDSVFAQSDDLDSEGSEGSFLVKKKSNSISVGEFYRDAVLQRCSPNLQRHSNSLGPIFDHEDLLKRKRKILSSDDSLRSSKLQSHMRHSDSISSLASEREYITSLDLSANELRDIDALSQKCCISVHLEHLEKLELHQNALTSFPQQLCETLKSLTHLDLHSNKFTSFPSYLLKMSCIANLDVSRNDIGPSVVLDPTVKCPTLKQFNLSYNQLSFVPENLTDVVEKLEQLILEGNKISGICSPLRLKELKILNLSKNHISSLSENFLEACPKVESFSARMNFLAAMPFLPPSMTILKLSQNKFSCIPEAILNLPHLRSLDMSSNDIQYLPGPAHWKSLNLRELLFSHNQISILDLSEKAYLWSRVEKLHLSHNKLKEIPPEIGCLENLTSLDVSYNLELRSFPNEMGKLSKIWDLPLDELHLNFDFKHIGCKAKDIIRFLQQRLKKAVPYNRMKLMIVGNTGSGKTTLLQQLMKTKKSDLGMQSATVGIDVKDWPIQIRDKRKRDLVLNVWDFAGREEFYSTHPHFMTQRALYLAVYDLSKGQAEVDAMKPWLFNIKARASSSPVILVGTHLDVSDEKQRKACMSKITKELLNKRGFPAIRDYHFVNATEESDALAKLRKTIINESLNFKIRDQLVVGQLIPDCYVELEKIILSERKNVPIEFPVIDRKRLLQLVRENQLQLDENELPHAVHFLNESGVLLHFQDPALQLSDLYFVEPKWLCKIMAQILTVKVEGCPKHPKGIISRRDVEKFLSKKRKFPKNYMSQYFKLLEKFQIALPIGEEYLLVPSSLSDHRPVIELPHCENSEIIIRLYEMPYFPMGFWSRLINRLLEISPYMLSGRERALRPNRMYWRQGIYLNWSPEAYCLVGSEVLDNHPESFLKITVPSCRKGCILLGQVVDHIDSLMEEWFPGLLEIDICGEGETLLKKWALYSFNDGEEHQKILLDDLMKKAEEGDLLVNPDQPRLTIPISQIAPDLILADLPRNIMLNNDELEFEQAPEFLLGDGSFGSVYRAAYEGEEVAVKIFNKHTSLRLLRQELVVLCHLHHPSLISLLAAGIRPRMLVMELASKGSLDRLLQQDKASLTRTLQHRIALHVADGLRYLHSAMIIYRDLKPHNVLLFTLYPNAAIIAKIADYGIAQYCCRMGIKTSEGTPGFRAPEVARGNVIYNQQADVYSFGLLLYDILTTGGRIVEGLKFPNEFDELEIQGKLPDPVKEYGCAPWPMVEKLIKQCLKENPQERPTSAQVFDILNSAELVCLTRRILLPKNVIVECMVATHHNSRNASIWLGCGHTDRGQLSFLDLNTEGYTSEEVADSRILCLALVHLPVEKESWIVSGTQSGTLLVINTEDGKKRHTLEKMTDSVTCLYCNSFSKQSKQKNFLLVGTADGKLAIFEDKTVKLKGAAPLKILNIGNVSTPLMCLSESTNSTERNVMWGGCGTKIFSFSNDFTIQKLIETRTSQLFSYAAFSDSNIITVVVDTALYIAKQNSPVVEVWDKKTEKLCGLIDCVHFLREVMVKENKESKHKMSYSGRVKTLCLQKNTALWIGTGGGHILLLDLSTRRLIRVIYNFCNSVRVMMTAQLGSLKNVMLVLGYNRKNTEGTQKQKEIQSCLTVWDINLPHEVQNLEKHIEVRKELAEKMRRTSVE
Sequence of UniProt P80192 (whole entry, looked up): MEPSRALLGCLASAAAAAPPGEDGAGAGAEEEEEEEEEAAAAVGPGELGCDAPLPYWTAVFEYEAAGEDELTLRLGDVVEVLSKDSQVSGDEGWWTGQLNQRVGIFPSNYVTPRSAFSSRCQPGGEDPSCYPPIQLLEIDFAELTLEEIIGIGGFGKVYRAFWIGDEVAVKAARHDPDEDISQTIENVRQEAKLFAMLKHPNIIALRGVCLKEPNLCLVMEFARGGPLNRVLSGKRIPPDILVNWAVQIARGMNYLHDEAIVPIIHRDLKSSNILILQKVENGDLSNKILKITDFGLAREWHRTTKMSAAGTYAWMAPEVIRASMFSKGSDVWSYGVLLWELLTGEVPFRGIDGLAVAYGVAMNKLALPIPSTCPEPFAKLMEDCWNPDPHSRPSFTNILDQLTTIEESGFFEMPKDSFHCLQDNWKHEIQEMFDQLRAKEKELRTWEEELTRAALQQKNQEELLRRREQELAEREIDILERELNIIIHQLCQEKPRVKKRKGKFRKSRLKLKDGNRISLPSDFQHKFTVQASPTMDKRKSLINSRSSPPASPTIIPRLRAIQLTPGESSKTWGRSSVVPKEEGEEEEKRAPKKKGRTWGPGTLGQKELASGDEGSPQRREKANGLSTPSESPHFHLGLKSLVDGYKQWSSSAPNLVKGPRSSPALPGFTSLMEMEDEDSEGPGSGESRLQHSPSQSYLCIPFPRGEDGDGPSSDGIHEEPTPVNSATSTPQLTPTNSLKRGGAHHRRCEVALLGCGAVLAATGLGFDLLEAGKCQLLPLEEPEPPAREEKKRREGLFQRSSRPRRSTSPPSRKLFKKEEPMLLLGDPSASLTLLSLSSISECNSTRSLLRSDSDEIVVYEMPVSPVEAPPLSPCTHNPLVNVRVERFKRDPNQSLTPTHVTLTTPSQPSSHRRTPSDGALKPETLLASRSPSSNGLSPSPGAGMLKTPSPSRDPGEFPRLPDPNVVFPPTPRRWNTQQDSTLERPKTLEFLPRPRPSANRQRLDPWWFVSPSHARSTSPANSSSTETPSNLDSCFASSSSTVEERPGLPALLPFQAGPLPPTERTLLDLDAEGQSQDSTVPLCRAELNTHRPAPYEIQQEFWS
Sequence of UniProt P07333 (whole entry, looked up): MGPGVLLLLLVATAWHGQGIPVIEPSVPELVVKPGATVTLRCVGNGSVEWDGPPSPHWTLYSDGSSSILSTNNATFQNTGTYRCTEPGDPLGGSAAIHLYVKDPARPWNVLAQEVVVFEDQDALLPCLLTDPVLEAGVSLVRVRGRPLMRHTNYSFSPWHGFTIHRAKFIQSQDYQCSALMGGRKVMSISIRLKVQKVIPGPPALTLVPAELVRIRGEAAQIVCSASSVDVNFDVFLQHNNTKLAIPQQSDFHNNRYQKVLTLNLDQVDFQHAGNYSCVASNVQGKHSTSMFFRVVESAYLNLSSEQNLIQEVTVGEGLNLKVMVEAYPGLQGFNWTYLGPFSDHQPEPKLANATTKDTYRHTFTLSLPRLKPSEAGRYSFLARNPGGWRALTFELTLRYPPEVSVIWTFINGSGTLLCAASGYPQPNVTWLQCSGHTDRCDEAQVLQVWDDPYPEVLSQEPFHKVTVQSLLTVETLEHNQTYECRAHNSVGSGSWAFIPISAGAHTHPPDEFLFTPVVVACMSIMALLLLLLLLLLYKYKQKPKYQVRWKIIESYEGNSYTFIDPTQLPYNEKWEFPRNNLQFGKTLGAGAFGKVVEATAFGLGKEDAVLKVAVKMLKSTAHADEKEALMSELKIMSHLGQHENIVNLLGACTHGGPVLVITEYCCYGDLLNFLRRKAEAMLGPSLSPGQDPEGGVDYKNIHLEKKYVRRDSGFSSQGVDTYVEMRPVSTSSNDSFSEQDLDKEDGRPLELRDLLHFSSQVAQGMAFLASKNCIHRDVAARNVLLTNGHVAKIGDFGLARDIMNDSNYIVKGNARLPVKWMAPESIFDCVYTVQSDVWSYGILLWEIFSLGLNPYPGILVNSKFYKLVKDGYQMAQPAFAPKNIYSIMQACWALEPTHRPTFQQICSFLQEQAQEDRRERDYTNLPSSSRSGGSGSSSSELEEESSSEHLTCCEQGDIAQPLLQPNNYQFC

Study 1
SMILES: Cn1nc(C(F)(F)F)cc1-c1cnc(N2CCc3cc(S(=O)(=O)Nc4c(F)cc(Cl)cc4F)cc(N4CCCC4=O)c32)nc1
Tested at: 1 µM
target	test	remaining binding
Tyrosine-protein kinase SYK (SYK, Homo sapiens, UniProt P43405)	cell-free assay, competition with immobilised ligand	100%
Cyclin-dependent kinase 4 (CDK4, Homo sapiens, UniProt P11802)	cell-free assay, competition with immobilised ligand	68%
Ephrin type-A receptor 2 (EPHA2, Homo sapiens, UniProt P29317)	cell-free assay, competition with immobilised ligand	100%
Focal adhesion kinase 1 (PTK2, Homo sapiens, UniProt Q05397)	cell-free assay, competition with immobilised ligand	98%
Macrophage colony-stimulating factor 1 receptor (CSF1R, Homo sapiens, UniProt P07333)	cell-free assay, competition with immobilised ligand	82%
Ribosomal protein S6 kinase alpha-5, C-terminal kinase domain (RPS6KA5, Homo sapiens, UniProt O75582)	cell-free assay, competition with immobilised ligand	97%
Bone morphogenetic protein receptor type-1A (BMPR1A, Homo sapiens, UniProt P36894)	binding, competition with immobilised ligand	98%
Serine/threonine-protein kinase PAK 5 (PAK5, Homo sapiens, UniProt Q9P286)	cell-free assay, competition with immobilised ligand	100%
Cyclin-dependent kinase 5 (CDK5, Homo sapiens, UniProt Q00535)	cell-free assay, competition with immobilised ligand	100%
Serine/threonine-protein kinase 38-like (STK38L, Homo sapiens, UniProt Q9Y2H1)	binding, competition with immobilised ligand	88%
Phosphatidylinositol 4-kinase beta (PI4KB, Homo sapiens, UniProt Q9UBF8)	cell-free assay, competition with immobilised ligand	77%
Serine/threonine-protein kinase LATS1 (LATS1, Homo sapiens, UniProt O95835)	cell-free assay, competition with immobilised ligand	99%
Mitogen-activated protein kinase kinase kinase kinase 1 (MAP4K1, Homo sapiens, UniProt Q92918)	cell-free assay, competition with immobilised ligand	100%
Tyrosine-protein kinase Fes/Fps (FES, Homo sapiens, UniProt P07332)	cell-free assay, competition with immobilised ligand	100%
Serine/threonine-protein kinase B-raf (BRAF, Homo sapiens, UniProt P15056)	cell-free assay, competition with immobilised ligand	82%
Tyrosine-protein kinase ABL1, phosphorylated (ABL1, Homo sapiens, UniProt P00519, F317I)	binding	85%
Protein-tyrosine kinase 6 (PTK6, Homo sapiens, UniProt Q13882)	cell-free assay, competition with immobilised ligand	90%
Mitogen-activated protein kinase 6 (MAPK6, Homo sapiens, UniProt Q16659)	cell-free assay, competition with immobilised ligand	100%
Leucine-rich repeat serine/threonine-protein kinase 2 (LRRK2, Homo sapiens, UniProt Q5S007, G2019S)	cell-free assay, competition with immobilised ligand	93%
Megakaryocyte-associated tyrosine-protein kinase (MATK, Homo sapiens, UniProt P42679)	cell-free assay, competition with immobilised ligand	91%
Cyclin-dependent kinase 11B (CDK11B, Homo sapiens, UniProt P21127)	cell-free assay, competition with immobilised ligand	100%
Ankyrin repeat and protein kinase domain-containing protein 1 (ANKK1, Homo sapiens, UniProt Q8NFD2)	cell-free assay, competition with immobilised ligand	96%

Study 2
Target: Calcium/calmodulin-dependent protein kinase type II subunit alpha (CAMK2A, Homo sapiens, UniProt Q9UQM7)
Sequence of UniProt Q9UQM7 (whole entry, looked up): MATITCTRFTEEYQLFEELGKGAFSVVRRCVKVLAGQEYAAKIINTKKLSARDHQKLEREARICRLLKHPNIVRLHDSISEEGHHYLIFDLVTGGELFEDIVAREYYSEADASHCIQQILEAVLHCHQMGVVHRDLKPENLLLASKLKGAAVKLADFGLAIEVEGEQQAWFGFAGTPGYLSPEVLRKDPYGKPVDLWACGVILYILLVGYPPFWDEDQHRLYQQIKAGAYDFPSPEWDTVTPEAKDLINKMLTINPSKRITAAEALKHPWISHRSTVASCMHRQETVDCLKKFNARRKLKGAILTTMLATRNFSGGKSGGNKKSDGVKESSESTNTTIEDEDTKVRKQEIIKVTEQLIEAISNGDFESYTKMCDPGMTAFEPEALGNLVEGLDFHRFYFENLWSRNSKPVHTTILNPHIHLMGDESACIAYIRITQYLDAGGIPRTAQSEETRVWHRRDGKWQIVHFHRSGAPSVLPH
Observed: enzyme activity
Action: inhibitor
Tested at: 10 µM
Compound	inhibition [%]
C[C@@H](NCCc1ccc(O)cc1)[C@@H](O)c1ccc(O)cc1 (racemic)	2
C=CCc1cc(OC)c(O)c(C(=O)NCCO)c1	-8
COc1cccc(CC(=O)O)c1	-28
CC(=O)c1c(C)c([N+](=O)[O-])c(C(C)(C)C)c([N+](=O)[O-])c1C	6
CC1=CC[C@@H]2C[C@H]1C2(C)C	3
O=c1oc2ccccc2cc1O	-22

Study 3
Observed: AlphaScreen signal
Technique: AlphaScreen counter screen
Sample: His6 peptide without bromodomain
Tested at: 50 µM
Setting: assay interference check
SMILES	inhibition
CC(C)(C)c1cnc(CSc2cnc(NC(=O)C3CCNCC3)s2)o1	21.3%
O=C1NC(=O)C(c2c[nH]c3ccccc23)=C1c1c[nH]c2ccccc12	78.7%
c1ccc(-c2cnc3c(N4CCOCC4)nccn23)cc1	13.7%
Cc1nc2ccccn2c1-c1csc(Nc2ccc(S(N)(=O)=O)cc2)n1	-1.7%
O=C(O)CCC(=O)Nc1ccccc1-c1nc2ccccc2[nH]c1=O	9.55%
COc1ccc(Nc2ncc(F)c(Nc3ccc(OC)c(Cl)c3)n2)cc1Cl	16.6%
CC(C)n1cnc2c(Nc3ccc(-c4ccccn4)cc3)nc(N[C@H](C)CO)nc21	53.5%
Cc1ccnc(Nc2nc(-c3sc(N)nc3C)cs2)c1	90.1%
Nc1nc(Nc2ccccc2F)sc1C(=O)c1ccc(Br)cc1	62.3%
CC(C)Oc1cc(Nc2nc(N[C@@H](C)c3ccc(F)cn3)ncc2Cl)[nH]n1	19.9%
CC(Nc1nc(-c2ccc(F)c(Cl)c2)cnc1N)c1ccccc1 (centres unmarked)	31.2%

Study 4
SMILES: O=C(Nc1ccccc1)Nc1cccc(Oc2ccc3nccn3n2)c1
Tested at: 1 µM
target	test	conditions	how to read	remaining binding
Phosphatidylinositol 4,5-bisphosphate 3-kinase catalytic subunit alpha isoform (PIK3CA, Homo sapiens, UniProt P42336, Q546K)	competitive binding panel	–	reference: vehicle	100%
Beta-adrenergic receptor kinase 1 (GRK2, Homo sapiens, UniProt P25098)	competitive binding panel	–	reference: vehicle	100%
Serine/threonine-protein kinase Chk1 (CHEK1, Homo sapiens, UniProt O14757)	competitive binding panel	–	reference: vehicle	100%
Eukaryotic translation initiation factor 2-alpha kinase 1 (EIF2AK1, Homo sapiens, UniProt Q9BQI3)	competitive binding panel	–	reference: vehicle	100%
NUAK family SNF1-like kinase 2 (NUAK2, Homo sapiens, UniProt Q9H093)	competitive binding	SNARK	–	100%
Serine/threonine-protein kinase Nek7 (NEK7, Homo sapiens, UniProt Q8TDX7)	competitive binding panel	–	reference: vehicle	100%
Leucine-rich repeat serine/threonine-protein kinase 2 (LRRK2, Homo sapiens, UniProt Q5S007)	competitive binding panel	–	reference: vehicle	100%

Study 5
Structure (SMILES): N#C/C(=C(/N)SC1C=CC=CC1)c1cccc(C(O)c2ccncc2)c1 (centres unmarked)
Observed: enzyme activity
Action: inhibitor
Tested at: 0.5 µM
Reference: control
target	remaining activity [%]
RAF proto-oncogene serine/threonine-protein kinase (RAF1, Homo sapiens, UniProt P04049)	99.1
Serine/threonine-protein kinase PLK1 (PLK1, Homo sapiens, UniProt P53350)	96.2
Activin receptor type-1 (ACVR1, Homo sapiens, UniProt Q04771)	93.1
Mitogen-activated protein kinase kinase kinase 9 (MAP3K9, Homo sapiens, UniProt P80192)	109

Excerpt of the above (study 3):
SMILES	inhibition
Cc1ccnc(Nc2nc(-c3sc(N)nc3C)cs2)c1	90.1%
O=C(O)CCC(=O)Nc1ccccc1-c1nc2ccccc2[nH]c1=O	9.55%
c1ccc(-c2cnc3c(N4CCOCC4)nccn23)cc1	13.7%
